Results pooled from the literature.
± gives the spread as reported.
Target: Albumin (ALB, Bos taurus, UniProt P02769)
Sequence of UniProt P02769 (whole entry, looked up): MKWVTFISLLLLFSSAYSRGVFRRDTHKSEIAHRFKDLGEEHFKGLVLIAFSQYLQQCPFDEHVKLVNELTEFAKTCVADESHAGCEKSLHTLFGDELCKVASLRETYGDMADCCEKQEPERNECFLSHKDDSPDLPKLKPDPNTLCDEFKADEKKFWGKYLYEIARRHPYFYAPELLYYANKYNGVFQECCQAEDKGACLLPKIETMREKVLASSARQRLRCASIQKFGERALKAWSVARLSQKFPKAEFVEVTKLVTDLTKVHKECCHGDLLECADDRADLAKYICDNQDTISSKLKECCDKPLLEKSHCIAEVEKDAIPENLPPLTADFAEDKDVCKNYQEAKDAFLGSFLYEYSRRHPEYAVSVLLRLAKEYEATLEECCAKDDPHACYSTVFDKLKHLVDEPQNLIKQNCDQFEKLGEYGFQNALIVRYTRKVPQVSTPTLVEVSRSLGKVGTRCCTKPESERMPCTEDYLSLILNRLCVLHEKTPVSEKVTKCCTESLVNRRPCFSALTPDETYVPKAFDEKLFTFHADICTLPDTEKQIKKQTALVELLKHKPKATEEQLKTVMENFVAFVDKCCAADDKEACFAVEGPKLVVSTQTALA

Under “number of binding sites”, `CC1=[N+]2N=C(c3ccccc3)[O][Pd-2]2([Cl])[O+]=C2Oc3ccccc3C=C21` (stereo not drawn) is recorded as 1.61 (fluorescence quenching; concentration not given).
`CCCCCCCCCCCCCC(=O)Nc1ccccc1SSc1ccccc1NC(=O)CCCCCCCCCCCCC` — result for “Gibbs free energy change”: -7.25 kcal/mol (binding, fluorescence quenching; 308 K).
Under “binding free energy”, `CCN(CC)c1ccc2c(c1)[O][Pt-2]1([Cl])[N+](=C2)c2ccccc2[NH+]1c1ccccc1` (stereo not drawn) is recorded as -9.08 kcal/mol (binding to BSA).
With `C#CC(=O)c1ccc(-c2c([Si](C)(C)C)c3ccccc3c3ccc4ccccc4[n+]23)cc1` the conversion was 80% (LC-MS; 16 h, pH 7.4, 25 °C, covalent modification of Cys34).
`CN(C)c1ccc(/N=N/c2ccc(S(=O)(=O)O)cc2)cc1`: “number of specific binding sites” 3 (concentration not given).
For `Cn1ccn(N=Cc2ccccc2SSc2ccccc2C=Nn2ccn(C)c2=S)c1=S`, “reaction completion time” read ≤ 2 h (adduct formation, optical absorption spectra; with: BSA 40 µM).
`Cc1ccc2ccc3ccc(C)nc3c2n1.Cc1ccc2ccc3ccc(C)nc3c2n1.O.[Cl-].[Cl-].[Cl-].[Yb+3]` gave a ΔG° of -7.758 ± 0.012 kcal/mol (fluorescence quenching; 298 K).
For `O=C([O-])CN1CCN(CC(=O)[O-])CCN(C(CCC(=O)NC(Cc2c[nH]c3ccc(O)cc23)C(=O)NCCc2c[nH]c3ccc(O)cc23)C(=O)O)CCN(CC(=O)[O-])CC1.[Gd+3]` (stereo not drawn), the T1 shortening was 121% (binding; concentration not given, 1 h, 40 °C, with: BSA, MPO, glucose oxidase, glucose).
With `C#CC(=O)Nc1ccc(-c2c([Si](C)(C)C)c3ccccc3c3ccc4ccccc4[n+]23)cc1` the conversion was 63% (LC-MS; 16 h, pH 7.4, 25 °C, covalent modification of Cys34).
For `CCCCCCCCCCCC(=O)Nc1ccccc1SSc1ccccc1NC(=O)CCCCCCCCCCC`, “Gibbs free energy change” read -7.02 kcal/mol (binding, fluorescence quenching; 308 K).
`O=[N][Fe]1([N]=O)[S](CCO)[Fe]([N]=O)([N]=O)[S]1CCO` — result for “apparent equilibrium constant”: 77.4 M⁻¹ (binding, EPR spin quantitation; 1:2 stoichiometry assumed).
Under “binding free energy”, `Oc1ccc2c(c1)[O][Pt-2]1([Cl])[N+](=C2)c2ccccc2[NH+]1c1ccccc1` (stereo not drawn) is recorded as -7.89 kcal/mol (binding to BSA).
For `CCCCCCCCCCCCCCCC(=O)Nc1ccccc1SSc1ccccc1NC(=O)CCCCCCCCCCCCCCC`, “Gibbs free energy change” read -3.22 kcal/mol (binding, fluorescence quenching; 308 K).
`O=C(O[C@@H]1Cc2c(O)cc(O)cc2O[C@@H]1c1cc(O)c(O)c(O)c1)c1cc(O)c(O)c(O)c1` — result for “induced CD amplitude”: ~-0.4 mdeg (binding, circular dichroism; 200 µM, pH 7.4, at 320 nm, with: BSA 30 µM).
With `O=C([O-])CN(CCN(CC(=O)[O-])CC(=O)NCCc1c[nH]c2ccc(O)cc12)CCN(CC(=O)[O-])CC(=O)NCCc1c[nH]c2ccc(O)cc12.[Gd+3]` the T1 shortening was 34% (binding; concentration not given, 1 h, 40 °C, no BSA, with: MPO, glucose oxidase, glucose).
For `CCNc1cc2c(cc1C)C1(c3cc(C)c(NCC)cc3O2)c2ccccc2C(=O)N1N=Cc1c[c-]c(-c2ccccn2)cc1.Cc1c(C)c(-c2ccc(-c3ccccc3)cc2)[c-](C)c1C.[Cl-].[Ir+3]`, “number of binding sites” read 0.885 (fluorescence quenching; bovine serum albumin; concentration not given, 298 K).
`CC(=O)[O-].O.O.[O-]c1ccc(Br)cc1C=NCCN1CCOCC1.[Zn+2]` — result for “Gibbs free energy change”: -5.92 kcal/mol (UV absorption titration).
`C#CC(=O)c1ccc(-c2c([Si](C)(C)C)c3ccccc3c3cc(-c4ccccc4)c4ccccc4[n+]23)cc1` has a conversion of 65% (LC-MS; 16 h, pH 7.4, 25 °C, covalent modification of Cys34).
`Cc1ccc(C(C)C)cc1.[Cl-].[Cl][Ru+].[Ru+].c1ccc(-c2cn(CCCCOc3ccccc3-c3nc4ccccc4s3)nn2)nc1`: “number of binding sites” 0.8 (Scatchard plot; concentration not given).
For `Cc1ccc(C(C)C)cc1.O=C([N-]c1nc2ccccc2s1)c1cnccn1.[Cl-].[Ru+2]`, “number of binding sites” read 0.71 (tryptophan fluorescence quenching; concentration not given).
The binding constant of `COC(=O)c1cnc(-c2cnccn2)cc1C(=O)OC.COC(=O)c1cnc(-c2cnccn2)cc1C(=O)OC.[Cl-].[Cl-].[Cl-].[Cl-].[Cu+2].[Cu+2]` is reported as 6.03e+06 M⁻¹ (fluorescence quenching).

For quick reference, copied from above:
`CC(=O)[O-].O.O.[O-]c1ccc(Br)cc1C=NCCN1CCOCC1.[Zn+2]` — result for “Gibbs free energy change”: -5.92 kcal/mol (UV absorption titration).
`C#CC(=O)c1ccc(-c2c([Si](C)(C)C)c3ccccc3c3cc(-c4ccccc4)c4ccccc4[n+]23)cc1` has a conversion of 65% (LC-MS; 16 h, pH 7.4, 25 °C, covalent modification of Cys34).
